# Published values of several laboratories.
# Protocols differ between the studies behind these lines. ± marks the error that the study gave.
# Calm1/Kcnn2 SK2-a isoform: Calm1/Kcnn2, SK2-a isoform (Rattus norvegicus, UniProt P0DP29+P70604)
# GLP1R: Glucagon-like peptide 1 receptor (GLP1R, Homo sapiens, UniProt P43220)
# NR1H3 ligand-binding domain: Oxysterols receptor LXR-alpha, ligand-binding domain (NR1H3, Homo sapiens, UniProt Q13133)
SMILES,target,assay,test system,conditions,EC50 [µM]
CC(C)CN(CC(C)C)C(=O)/C=C/C=C/c1ccc2c(c1)OCO2,"Gabra1/Gabrb2 (Rattus norvegicus, UniProt P62813+P63138)","GABA current potentiation, positive modulator, two-electrode voltage clamp",Xenopus oocytes expressing α1β2,with: GABA EC3-7,19.8 ± 9.7
Cc1cc(NC2CCCCC2)nc(-n2nc(C)cc2C)n1,Calm1/Kcnn2 SK2-a isoform,,rat,,6.04 ± 1.04
COc1ccc(-c2cc(C(F)(F)F)nc(SCC(=O)N(C)c3ccccc3)n2)cc1,GLP1R,"cAMP accumulation, positive allosteric modulator",HEK-293T overexpressing GLP1R,with: EC20 GLP-1,23 ± 20
CN(C(=O)C(c1ccccc1)c1ccccc1)c1ccc(C(O)(C(F)(F)F)C(F)(F)F)cc1,NR1H3 ligand-binding domain,agonist,,concentration not given,4.5 ± 0.1
CC[C@H](C)NC(=O)/C(=C\Nc1ccc(Cl)cc1)C(=O)c1ccccc1Cl,"GABA A receptor alpha-1/beta-1/gamma-2 (Homo sapiens, UniProt P14867+P18505+P18507)","GABA current potentiation, positive modulator, two-electrode voltage clamp",Xenopus laevis oocytes,"30 s preincubation, with: GABA EC10",1.2 ± 0.5
NCCCc1ccccc1,"CFTR (Homo sapiens, UniProt P13569)","open probability, activator, inside-out patch clamp",,-80 mV,6000 ± 2000
O=C1Nc2c(ccc(Cl)c2Cl)C1=NO,Calm1/Kcnn2 SK2-a isoform,,rat,,0.44 ± 0.13
CC[C@H](C)[C@H](NC(=O)[C@H](CO)NC(=O)[C@@H](Cc1cccnc1)NC(=O)[C@@H](Cc1ccc(Cl)cc1)NC(=O)[C@@H](Cc1ccc2ccccc2c1)NC(C)=O)C(=O)N[C@H](CCCCNC(C)C)C(=O)N[C@@H](CC(C)C)C(=O)N[C@@H](CCCCNC(C)C)C(=O)N1CCC[C@H]1C(=O)N[C@H](C)C(N)=O,"Gonadotropin-releasing hormone receptor III (Gallus gallus, UniProt Q5EFE0)","inositol phosphate production, agonist",COS-7 cells transfected,1 h,1.51 ± 0.216
COc1ccc(CNc2nc(-c3ccc(OC)c(OC)c3)cc(C(F)(F)F)n2)cc1,GLP1R,"cAMP accumulation, positive allosteric modulator",HEK-293T overexpressing GLP1R,with: EC20 GLP-1,19 ± 22
O=C(O)COc1cccc(NC(=O)c2cc(-c3cccc(F)c3)ccc2F)c1,"PTGER4 (Homo sapiens, UniProt P35408)","calcium signal, agonist, fluorescence",,,> 10
N#C/C(=C\c1cccc(-c2ccncc2)c1)C(N)=O,"RPS6KA5 (Homo sapiens, UniProt O75582)","phosphorylation in cells, inhibitor, western blot",,,< 5
Cc1cc(C)c2sc(NC(=O)C3CCN(S(=O)(=O)c4ccc(F)cc4)CC3)nc2c1,"Napepld (Mus musculus, UniProt Q8BH82)",flame-NAPE competition,,"LEI-401 series, with: vehicle pretreatment",0.54
COc1ccc(S(=O)(=O)Nc2c(C)cc(C)cc2C)cc1,"FFAR4 (Homo sapiens, UniProt Q5NUL3)","agonist, dynamic mass redistribution",CHO cells expressing FFA4,5 min,0.34 ± 0.07
COCCOc1ccc2cc1S(=O)(=O)NCCCNc1nc(ncc1-c1ccc(F)c(OC)c1)N2,"FGFR1 (Homo sapiens, UniProt P11362)","target engagement in cells, BRET",,,9.8
COc1ccc(-c2cc(C(F)(F)F)nc(S(=O)(=O)CCCC(=O)Nc3ccc(F)c(Cl)c3)n2)cc1OC,GLP1R,"cAMP, agonist",,,4.4
O=P(O)(O)O[C@@H]1[C@@H](O)[C@H](O)[C@H](O)[C@H](O)[C@H]1OP(=O)(O)O,"Itpr1 (Rattus norvegicus, UniProt P29994, del318-332/R504Q)",Ca2+ release,"DT40, permeabilized",,26.3
CC(C)=CCCC(C)CC=O (stereo not shown),"TRPV3 (Homo sapiens, UniProt Q8NET8)","ion current, agonist, patch clamp",,,5780
COc1ccc(-c2cc(C(F)(F)F)nc(SCC(=O)N(C)c3ccccc3)n2)cc1OC,GLP1R,"cAMP accumulation, positive allosteric modulator",HEK-293T overexpressing GLP1R,with: EC20 GLP-1,3.9 ± 1
CN(C(=O)c1cccc2ccccc12)c1ccc(C(O)(C(F)(F)F)C(F)(F)F)cc1,NR1H3 ligand-binding domain,agonist,,concentration not given,1.1 ± 0.1
COc1ccc(-c2cc(C(F)(F)F)nc(SCCC(=O)Nc3cc(F)ccc3F)n2)cc1,GLP1R,"cAMP accumulation, positive allosteric modulator",HEK-293T overexpressing GLP1R,with: EC20 GLP-1,17 ± 23
Cc1ccc(Oc2nc3cc(-c4ccc5c(ccn5C)c4)c(Cl)cc3[nH]2)cc1C(=O)O,"PRKAB2/PRKAA1, with gamma1 subunit (Homo sapiens, UniProt O43741+Q13131)",allosteric activator,,"AMPK complex α1β2γ1, with: SAMS peptide substrate",1.1
COc1cc(Cl)ccc1NC(=O)CCCS(=O)(=O)c1nc(-c2ccc(OC)c(OC)c2)cc(C(F)(F)F)n1,GLP1R,"cAMP, agonist",,,9.5
C[C@@H]1NC(=O)[C@H](CC(N)=O)NC(=O)[C@H](Cc2c[nH]c3ccccc23)NC(=O)[C@H](CCCNC(=N)N)NC(=O)[C@@H](Cc2ccccc2)NC(=O)[C@H](Cc2c[nH]cn2)NC(=O)[C@@H](NC(=O)[C@@H](N)Cc2ccc(O)cc2)Cn2cc(nn2)C[C@@H](C(=O)N[C@@H](Cc2ccc(O)cc2)C(N)=O)NC(=O)[C@H](Cc2ccccc2)NC1=O,"Melanocortin receptor 4 (Mus musculus, UniProt P56450)",agonist,,,0.006 ± 0.001
CN(C(=O)c1c(F)cccc1Cl)c1ccc(C(O)(C(F)(F)F)C(F)(F)F)cc1,NR1H3 ligand-binding domain,agonist,,concentration not given,0.183 ± 0.006
O=C(NC1(Cc2ccccc2)CC1)c1cc(N2CCCCC2)ccn1,"SLC6A8 (Homo sapiens, UniProt P48029, P544L)","surface trafficking, PathHunter, refers to: SLC6A8 P544L",U-2 OS,24 h,2
